Results from different studies.
Lines come from different studies, so protocols differ. ± marks the error that the study gave.
Target: Cytochrome P450 2C19 (CYP2C19, Homo sapiens, UniProt P33261)
UniProt P33261, sequence (whole entry, looked up): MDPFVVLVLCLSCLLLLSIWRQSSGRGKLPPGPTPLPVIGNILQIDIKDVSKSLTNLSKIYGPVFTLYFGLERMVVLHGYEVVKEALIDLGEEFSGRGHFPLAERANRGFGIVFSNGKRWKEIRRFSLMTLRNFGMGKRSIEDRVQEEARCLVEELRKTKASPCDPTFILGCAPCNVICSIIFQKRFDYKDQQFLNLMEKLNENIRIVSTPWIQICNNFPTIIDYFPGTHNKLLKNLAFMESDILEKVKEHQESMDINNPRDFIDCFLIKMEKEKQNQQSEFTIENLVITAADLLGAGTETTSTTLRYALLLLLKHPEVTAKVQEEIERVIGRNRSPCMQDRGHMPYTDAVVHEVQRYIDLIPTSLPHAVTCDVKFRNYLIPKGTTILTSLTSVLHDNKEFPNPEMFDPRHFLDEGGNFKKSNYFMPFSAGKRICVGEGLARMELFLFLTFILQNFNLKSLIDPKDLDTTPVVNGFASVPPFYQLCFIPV

COc1ccc2nc([S+]([O-])Cc3ncc(CO)c(OC)c3C)[nH]c2c1 (stereo not drawn) — Tmax (CYP2C19 inhibitor, refers to: omeprazole; human, plasma; median, with: omeprazole): 4 h
C=CC(=O)Nc1cc(Nc2nccc(-c3cn(C)c4ccccc34)n2)c(OCC(F)(F)F)nc1N(C)CCN(C)C — intrinsic clearance (substrate depletion; recombinant human CYP; 1 µM): 0.3 µL/min/pmol
COc1ccc2nc([S+]([O-])Cc3ncc(CO)c(OC)c3C)[nH]c2c1 (stereo not drawn) — AUC(0-t) (substrate; human, plasma; oral, 20 mg, day 14, cocktail with binimetinib and encorafenib): 195 ng·h/mL
CC(C)=CCc1cc2c(cc1O)O[C@H](c1ccc(O)cc1)CC2=O — CLint (phase I metabolism, substrate; recombinant enzyme; pH 7.4): 22.6 µL/min/mg
COc1ccc2[nH]c([S+]([O-])Cc3ncc(C)c(OC)c3C)nc2c1 (stereo not drawn) — AUC(0-12 h) (refers to: 5-hydroxyomeprazole; human healthy subjects, plasma; oral, dose not given, alone, geometric mean, with: midazolam): 335 ng·h/mL
C=CC(=O)N(C)CCOc1c(N)ncnc1-c1cc(F)cc(NC(=O)c2ccc(C3CC3)cc2F)c1C — relative unbound intrinsic clearance (recombinant human CYP; pH 7.4, scaled to liver microsomes): 4.8 µL/min/mg
Cc1cc(C)c(CNC(=O)c2cc(Cl)c3c(c2C)O[C@@](C)([C@H]2CC[C@H](N(C)C)CC2)O3)c(=O)[nH]1 — CLint (recombinant human CYP2C19; 0 and 30 min): 0.00136 µL/min/pmol
COc1cc(O)c(CC=C(C)C)c(O)c1C(=O)/C=C/c1ccc(O)cc1 — inhibition (enzyme activity, inhibitor; human liver microsomes; 10 µM, pH 7.4, with: (S)-mephenytoin): 15 ± 1.9%
COc1ccc2[nH]c([S+]([O-])Cc3ncc(C)c(OC)c3C)nc2c1 (stereo not drawn) — geometric LS mean ratio of Cmax (human, plasma; oral, 20 mg, Day 14, with: encorafenib at steady state; reference: Day -7): 1.01
CC(C)=CCc1c(O)cc2c(c1O)C(=O)C[C@@H](c1ccc(O)cc1)O2 — inhibition (1 µM, pH 7.4): < 10%
CN(C(=O)n1cnc(-c2ccc[n+]([O-])c2)c1)C1CCCCC1 — inhibition (enzyme activity, inhibitor; pooled human liver microsomes; 0.1 to 30 µg/mL): no effect
COc1cc(O)c(CC=C(C)C)c2c1C(=O)CC(c1ccc(O)cc1)O2 (stereo not drawn) — inhibition (enzyme activity, inhibitor; human liver microsomes; 1 µM, pH 7.4, with: (S)-mephenytoin): 51 ± 8.6%
Cc1cccc(F)c1N1CCC(N2Cc3cn(CC(C)(F)F)nc3N(Cc3ccccc3C(F)(F)F)C2=O)CC1 — selectivity ratio (enzyme activity, inhibitor, Ki based, refers to: (S)-mephenytoin 4'-hydroxylation; reference: CYP2C8 Ki over target Ki): 1.6 fold
N#C[C@H](C[C@@H]1CCCNC1=O)NC(=O)[C@H](CC1CC1)NC(=O)c1cc2cccc(Cl)c2[nH]1 — half-life (NADPH metabolic stability; 2 µM, pH 7.4, 37 °C, 100 pmol/mL enzyme): 0.175 h
CC(C)=CCc1c(O)cc(O)c2c1O[C@H](c1ccc(O)cc1)CC2=O — inhibition (enzyme activity, inhibitor; 10 µM, pH 7.4): 92.8 ± 5.5%

A few entries again:
COc1ccc2[nH]c([S+]([O-])Cc3ncc(C)c(OC)c3C)nc2c1 (stereo not drawn) — geometric LS mean ratio of Cmax (human, plasma; oral, 20 mg, Day 14, with: encorafenib at steady state; reference: Day -7): 1.01
COc1cc(O)c(CC=C(C)C)c(O)c1C(=O)/C=C/c1ccc(O)cc1 — inhibition (enzyme activity, inhibitor; human liver microsomes; 10 µM, pH 7.4, with: (S)-mephenytoin): 15 ± 1.9%
